Literature values, collected from citations in different studies.
≈ marks a conversion by molar mass, not a printed value.

CN1CCC(COc2cnc(-c3cccc(Cn4nc(-c5cccc(C#N)c5)ccc4=O)c3)nc2)CC1 — solubility (FaSSIF; literature value): 0.0728 mg/mL (≈ 148 µM)
CC(C)n1nc(-c2ccc3oc(N)nc3c2)c2c(N)ncnc21 — hyperglycemia incidence (patients; dose not given, dose-escalation phase): 65%
medroxyprogesterone — activity (Cryptosporidium parvum; HTS; concentration not given): inactive
Cc1cc(C#N)cc(C)c1Oc1nc(Nc2ccc(C#N)cc2)nc(N)c1Br — CC50 (MT-4): ~5 µM
C=CC(=O)N1CCC[C@@H](n2nc(-c3ccc(Oc4ccccc4)cc3)c3c(N)ncnc32)C1 — solubility (FaSSIF; literature value): 0.0982 mg/mL (≈ 223 µM)
CC(C)(C)NCC(O)COc1cccc2c1CC(O)C(O)C2 (stereo not drawn) — diarrhoea incidence (human; concentration not given, clinical): 0%
CCc1cc(F)c(Cc2cnc(Nc3ccc(C#N)c(Cl)c3)o2)c(F)c1 — EC50 (HIV-1; viral replication; MT2 cells, IIIB wild type): 0.001 µM
CCCCCOC(=O)Nc1nc(=O)n([C@@H]2O[C@H](C)[C@@H](O)[C@H]2O)cc1F — Cmax (human, plasma; concentration not given): 9.7 µM
O=C(O)CCCOc1ccc(F)cc1-c1cc(-c2ccccc2C(F)(F)F)n(-c2ccccc2)n1 — Kd (other FABP isoforms; binding): ≥ 0.24 µM

For quick reference, copied from above:
CCc1cc(F)c(Cc2cnc(Nc3ccc(C#N)c(Cl)c3)o2)c(F)c1 — EC50 (HIV-1; viral replication; MT2 cells, IIIB wild type): 0.001 µM
